Measured values collected from several papers.
Lines come from different studies, so protocols differ. ± marks the error that the study gave.

| SMILES | tested on | assay | test system | conditions | scale | endpoint | result |
| --- | --- | --- | --- | --- | --- | --- | --- |
| CC[C@H](C)[C@H](NC(=O)[C@H](CCCCN)NC(=O)[C@H](CCCCN)NC(=O)[C@H](CC(C)C)NC(=O)[C@H](Cc1c[nH]c2ccccc12)NC(=O)CN)C(=O)NCC(=O)N[C@@H](CCCCN)C(=O)N[C@@H](CCCCN)C(=O)N[C@H](C(=O)N[C@@H](CCC(=O)O)C(=O)N[C@@H](CCCNC(=N)N)C(=O)N[C@H](C(=O)NCC(=O)N[C@@H](CCC(N)=O)C(=O)N[C@@H](Cc1c[nH]cn1)C(=O)N[C@H](C(=O)N[C@@H](CCCNC(=N)N)C(=O)N[C@@H](CC(=O)O)C(=O)N[C@@H](C)C(=O)N[C@H](C(=O)N[C@H](C(=O)N[C@@H](CCC(N)=O)C(=O)N[C@H](C(=O)N[C@H](C(=O)NCC(=O)N[C@H](C(=O)N[C@@H](C)C(=O)N[C@@H](CCC(N)=O)C(=O)N[C@@H](CCC(N)=O)C(=O)N[C@@H](C)C(=O)N[C@@H](C)C(=O)N[C@@H](CC(N)=O)C(=O)N[C@H](C(=O)N[C@@H](C)C(=O)N[C@@H](C)C(=O)N[C@H](C(=O)N[C@@H](CC(C)C)C(=O)N[C@@H](CCCCN)C(N)=O)[C@@H](C)O)C(C)C)C(C)C)[C@@H](C)CC)[C@@H](C)O)[C@@H](C)CC)[C@@H](C)O)[C@@H](C)O)C(C)C)[C@@H](C)CC | – | – | human erythrocytes | – | – | minimal haemolytic concentration | 1020 mg/L |
| CCCCCCCCCCCCCCCCCC(=O)N[C@@H](CCC(=O)NCCCC[C@H](NC(=O)[C@H](CCC(N)=O)NC(=O)[C@H](CCCCN)NC(=O)[C@H](CO)NC(=O)[C@H](CC(C)C)NC(=O)[C@H](CC(=O)O)NC(=O)[C@H](CO)NC(=O)[C@@H](NC(=O)[C@H](Cc1ccccc1)NC(=O)[C@@H](NC(=O)CNC(=O)[C@H](CCC(N)=O)NC(=O)[C@@H](CO)NC(=O)[C@@H](N)Cc1c[nH]cn1)[C@@H](C)O)[C@@H](C)O)C(=O)N[C@@H](CC(=O)O)C(=O)N[C@@H](CCC(=O)O)C(=O)N[C@@H](CCC(N)=O)C(=O)N[C@@H](CC(C)C)C(=O)N[C@@H](C)C(=O)N[C@@H](CCCCN)C(=O)N[C@@H](CC(=O)O)C(=O)N[C@@H](Cc1ccccc1)C(=O)N[C@H](C(=O)N[C@@H](CCC(=O)O)C(=O)N[C@@H](Cc1c[nH]c2ccccc12)C(=O)N[C@@H](CC(C)C)C(=O)N[C@@H](CCCCN)C(=O)N[C@@H](C)C(=O)NCC(=O)NCC(=O)N1CCC[C@H]1C(=O)N[C@@H](CO)C(=O)N[C@@H](CO)C(=O)NCC(=O)N[C@@H](C)C(=O)N1CCC[C@H]1C(=O)N1CCC[C@H]1C(=O)N1CCC[C@H]1C(=O)N[C@@H](CO)C(N)=O)[C@@H](C)CC)C(=O)O | GLP-1 receptor (monkey) | cAMP production, agonist, HTRF | HEK293 expressing monkey GLP-1R | – | – | EC50 | 0.0063 nM |
| CC[C@H](C)[C@H](NC(=O)[C@H](Cc1ccccc1)NC(=O)[C@@H](NC(=O)[C@@H](NC(=O)[C@H](CC(C)C)NC(=O)[C@H](CCCCN)NC(=O)[C@@H](N)CCCCN)[C@@H](C)CC)[C@@H](C)O)C(=O)N[C@@H](CC(C)C)C(=O)N[C@@H](CCCNC(=N)N)C(=O)N[C@@H](CCCNC(=N)N)C(=O)N[C@H](C(=O)N[C@@H](CCCNC(=N)N)C(=O)N[C@@H](CCC(=O)O)C(=O)N[C@@H](CCCCN)C(=O)N[C@@H](CCCCN)C(=O)N[C@@H](CCCCN)C(=O)N[C@@H](CCC(=O)O)C(=O)N[C@@H](CS)C(=O)N[C@@H](CC(C)C)C(=O)N[C@H](C(=O)O)C(C)C)[C@@H](C)O | TTX-sensitive sodium channel (mouse) | resurgent sodium current, open-channel blocker, kinetic model fit | mouse hippocampal CA3 neurons | 200 µM assumed intracellular, membrane potential -30 mV, unit not given | relative to: kIO over kOI | inactivation equilibrium constant | 0.044 |
| Nc1ccn(C2CCC(OC(C(=O)O)P(=O)(O)O)C2)c(=O)n1 (racemic) | HIV-1 reverse transcriptase Y115F | enzyme activity, inhibitor | – | added: poly(rI)·oligo(dC), [3H]dCTP | relative to: mutant over wild type | fold resistance | 1.1 fold |
| Cc1cc(/C=C/C#N)cc(C)c1-n1cnc2cnc(Nc3ccc(C#N)cc3)nc21 | HIV-1 | viral replication, single-round infection | RT mutant M184I | – | – | EC50 | 0.2 ± 0.04 nM |
| Cc1cn(C2CCC(OC(C(=O)O)P(=O)(O)O)C2)c(=O)[nH]c1=O (racemic) | HIV-1 reverse transcriptase M184I | enzyme activity, inhibitor | – | added: poly(rA)·oligo(dT), [3H]dTTP | relative to: mutant over wild type | fold resistance | 36 fold |
| CCCCCCCCCCCCCCCC(=O)N[C@@H](CCC(=O)NCCOCCOCCC(=O)NCCOCCOCCC(=O)NCCCC[C@H](NC(=O)[C@H](CC(=O)O)NC(=O)[C@H](CC(C)C)NC(=O)[C@H](Cc1ccc(O)cc1)NC(=O)[C@H](CCCCN)NC(=O)[C@H](CO)NC(=O)[C@H](Cc1ccc(O)cc1)NC(=O)[C@H](CC(=O)O)NC(=O)[C@H](CO)NC(=O)[C@@H](NC(=O)[C@H](Cc1ccccc1)NC(=O)[C@@H](NC(=O)CNC(=O)[C@H](CCC(N)=O)NC(=O)[C@@H](CO)NC(=O)[C@@H](N)Cc1c[nH]cn1)[C@@H](C)O)[C@@H](C)O)C(=O)N[C@@H](CCCNC(=N)N)C(=O)N[C@@H](CCCNC(=N)N)C(=O)N[C@@H](C)C(=O)N[C@@H](CCC(N)=O)C(=O)N[C@@H](CC(=O)O)C(=O)N[C@@H](Cc1ccccc1)C(=O)N[C@H](C(=O)N[C@@H](CCC(N)=O)C(=O)N[C@@H](Cc1c[nH]c2ccccc12)C(=O)N[C@@H](CC(C)C)C(=O)N[C@@H](CC(C)C)C(=O)N[C@@H](CC(N)=O)C(=O)N[C@H](C(=O)NCC(=O)NCC(=O)N1CCC[C@H]1C(=O)N[C@@H](CO)C(=O)N[C@@H](CO)C(=O)NCC(=O)N[C@@H](C)C(=O)N1CCC[C@H]1C(=O)N1CCC[C@H]1C(=O)N1CCC[C@H]1C(=O)N[C@@H](CO)C(N)=O)[C@@H](C)O)C(C)C)C(=O)O | – | – | Sprague-Dawley rat, female | subcutaneous, 100 µg/kg once daily, 14 days | – | urea | 3.96 ± 0.68 mmol/L |
| CC[C@H](C)[C@@H]1NC(=O)[C@H](CC(=O)O)NC(=O)[C@H]([C@@H](C)O)NC(=O)[C@@H]2CSSC[C@@H]3NC(=O)[C@H](CC(C)C)NC(=O)[C@H](CC(N)=O)NC(=O)[C@H](CC(C)C)NC(=O)[C@H](CCCNC(=N)N)NC(=O)[C@H](C)NC(=O)[C@H](CCCCN)NC(=O)[C@H](CCSC)NC(=O)[C@H](CO)NC(=O)[C@H]([C@@H](C)O)NC(=O)[C@H](CCCNC(=N)N)NC(=O)[C@H](CSSC[C@H](NC(=O)[C@H]([C@@H](C)O)NC(=O)[C@H](CCCCN)NC(=O)[C@H](CCCNC(=N)N)NC3=O)C(=O)NCC(=O)N[C@@H](CO)C(=O)N[C@H](C(=O)O)CSSC[C@H](NC(=O)[C@@H](NC(=O)[C@@H](N)CCCNC(=N)N)[C@@H](C)O)C(=O)N[C@@H](CCCCN)C(=O)N[C@@H](CC(=O)O)C(=O)N[C@@H](CC(C)C)C(=O)N[C@@H]([C@@H](C)CC)C(=O)N3CCC[C@H]3C(=O)N[C@@H](C(C)C)C(=O)N[C@@H](CO)C(=O)N[C@@H](CCC(=O)O)C(=O)N2)NC(=O)[C@H](CCCNC(=N)N)NC1=O | KcsA-Shaker channel | two-electrode voltage clamp | Xenopus oocytes | 0 mV | – | kon | 930000 ± 120000 M⁻¹ s⁻¹ |
| CC[C@H](C)[C@H](NC(=O)[C@H](C)NC(=O)[C@@H](NC(=O)[C@@H](NC(=O)[C@H](CC(C)C)NC(=O)[C@H](CCCCN)NC(=O)[C@@H](N)CCCCN)[C@@H](C)CC)[C@@H](C)O)C(=O)N[C@@H](CC(C)C)C(=O)N[C@@H](CCCCN)C(=O)N[C@@H](CCCCN)C(=O)N[C@H](C(=O)N[C@@H](CCCNC(=N)N)C(=O)N[C@@H](CCC(=O)O)C(=O)N[C@@H](CCCCN)C(=O)N[C@@H](CCCCN)C(=O)N[C@@H](CCCCN)C(=O)N[C@@H](CCC(=O)O)C(=O)N[C@@H](CS)C(=O)N[C@@H](CC(C)C)C(=O)N[C@H](C(=O)O)C(C)C)[C@@H](C)O | TTX-sensitive sodium channel (mouse) | resurgent sodium current, open-channel blocker, kinetic model fit | mouse hippocampal CA3 neurons | 200 µM assumed intracellular, membrane potential -30 mV, unit not given | relative to: kIO over kOI | inactivation equilibrium constant | 0.068 |
| CC[C@H](C)[C@@H]1NC(=O)[C@H](CC(=O)O)NC(=O)[C@H]([C@@H](C)O)NC(=O)[C@@H]2CSSC[C@@H]3NC(=O)[C@H](CC(C)C)NC(=O)[C@H](CC(N)=O)NC(=O)[C@H](CC(C)C)NC(=O)[C@H](CCCNC(=N)N)NC(=O)[C@H](Cc4ccc(O)cc4)NC(=O)[C@H](CCCCN)NC(=O)[C@H](CCSC)NC(=O)[C@H](CO)NC(=O)[C@H]([C@@H](C)O)NC(=O)[C@H](CCCNC(=N)N)NC(=O)[C@H](CSSC[C@H](NC(=O)[C@H]([C@@H](C)O)NC(=O)[C@H](CCCCN)NC(=O)[C@H](CCCNC(=N)N)NC3=O)C(=O)NCC(=O)N[C@@H](CO)C(=O)N[C@H](C(=O)O)CSSC[C@H](NC(=O)[C@@H](NC(=O)[C@@H](N)CCCNC(=N)N)[C@@H](C)O)C(=O)N[C@@H](CCCCN)C(=O)N[C@@H](CC(=O)O)C(=O)N[C@@H](CC(C)C)C(=O)N[C@@H]([C@@H](C)CC)C(=O)N3CCC[C@H]3C(=O)N[C@@H](C(C)C)C(=O)N[C@@H](CO)C(=O)N[C@@H](CCC(=O)O)C(=O)N2)NC(=O)[C@H](CCCNC(=N)N)NC1=O | KcsA-Shaker channel | two-electrode voltage clamp | Xenopus oocytes | 0 mV | – | koff | 0.0014 ± 0.0003 s⁻¹ |
| CC(=O)N[C@@H](CCCNC(=O)c1ccc(-c2cc(C(F)(F)F)ccn2)cc1)C(=O)N[C@@H](CCCNC(=O)c1ccc(-c2cc(C(F)(F)F)ccn2)cc1)C(N)=O | vaccinia virus VH1 phosphatase | enzyme activity, inhibitor | – | – | – | IC50 | 38000 nM |
| Cc1cc(/C=C/C#N)cc(C)c1Nc1nc(Nc2ccc(C#N)cc2)ncc1N | HIV-1 | viral replication, single-round infection | RT mutant V111A | – | – | EC50 | 0.2 ± 0.1 nM |
| Nc1ncnc2c1ncn2C1CCC(OC(C(=O)O)P(=O)(O)O)C1 (racemic) | HIV-1 reverse transcriptase Q151M | enzyme activity, inhibitor | – | added: poly(rU)·oligo(dA), [3H]dATP | relative to: mutant over wild type | fold resistance | 0.8 fold |

For quick reference, copied from above:
| SMILES | tested on | assay | test system | conditions | scale | endpoint | result |
| --- | --- | --- | --- | --- | --- | --- | --- |
| CC[C@H](C)[C@@H]1NC(=O)[C@H](CC(=O)O)NC(=O)[C@H]([C@@H](C)O)NC(=O)[C@@H]2CSSC[C@@H]3NC(=O)[C@H](CC(C)C)NC(=O)[C@H](CC(N)=O)NC(=O)[C@H](CC(C)C)NC(=O)[C@H](CCCNC(=N)N)NC(=O)[C@H](C)NC(=O)[C@H](CCCCN)NC(=O)[C@H](CCSC)NC(=O)[C@H](CO)NC(=O)[C@H]([C@@H](C)O)NC(=O)[C@H](CCCNC(=N)N)NC(=O)[C@H](CSSC[C@H](NC(=O)[C@H]([C@@H](C)O)NC(=O)[C@H](CCCCN)NC(=O)[C@H](CCCNC(=N)N)NC3=O)C(=O)NCC(=O)N[C@@H](CO)C(=O)N[C@H](C(=O)O)CSSC[C@H](NC(=O)[C@@H](NC(=O)[C@@H](N)CCCNC(=N)N)[C@@H](C)O)C(=O)N[C@@H](CCCCN)C(=O)N[C@@H](CC(=O)O)C(=O)N[C@@H](CC(C)C)C(=O)N[C@@H]([C@@H](C)CC)C(=O)N3CCC[C@H]3C(=O)N[C@@H](C(C)C)C(=O)N[C@@H](CO)C(=O)N[C@@H](CCC(=O)O)C(=O)N2)NC(=O)[C@H](CCCNC(=N)N)NC1=O | KcsA-Shaker channel | two-electrode voltage clamp | Xenopus oocytes | 0 mV | – | kon | 930000 ± 120000 M⁻¹ s⁻¹ |
| Nc1ccn(C2CCC(OC(C(=O)O)P(=O)(O)O)C2)c(=O)n1 (racemic) | HIV-1 reverse transcriptase Y115F | enzyme activity, inhibitor | – | added: poly(rI)·oligo(dC), [3H]dCTP | relative to: mutant over wild type | fold resistance | 1.1 fold |
